Results collected from several papers.
A part holds a random share of what one study measured. Changes are numbered by the printed parent chain.

Set 1
Target: CCNE2, cyclin fold, Cln2 fusion (human)
Method: yeast growth competition, sequencing
Medium: yeast
Notes: strong parent motif
Relative to: not given
Reading: higher = stronger binding
Parent: viral docking peptide; YKVKRRLVFGADD; partner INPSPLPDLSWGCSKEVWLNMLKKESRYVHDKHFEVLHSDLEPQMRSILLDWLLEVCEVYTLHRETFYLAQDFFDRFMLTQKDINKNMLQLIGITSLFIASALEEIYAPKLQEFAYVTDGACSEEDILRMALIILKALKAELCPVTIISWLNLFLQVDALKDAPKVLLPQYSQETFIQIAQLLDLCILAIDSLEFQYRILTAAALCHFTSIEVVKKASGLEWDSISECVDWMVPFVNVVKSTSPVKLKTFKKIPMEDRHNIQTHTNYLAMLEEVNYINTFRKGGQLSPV
`L7Q`: “normalised enrichment score” -0.00529.
Under “normalised enrichment score”, `D12M` is recorded as 5.37.
`K2Y` — result for “normalised enrichment score”: 4.82.
`R6G`: “normalised enrichment score” -0.179.
`G10K`: “normalised enrichment score” 4.71.
For `K2Q`, “normalised enrichment score” read 5.71.
Under “normalised enrichment score”, `A11G` is recorded as 5.88.
`R6S`: “normalised enrichment score” 0.937.
For `V3F`, “normalised enrichment score” read 2.97.
`R6Q`: “normalised enrichment score” 3.94.
`L7N` — result for “normalised enrichment score”: 0.673.
For `K4N`, “normalised enrichment score” read 3.69.
`R6E`: “normalised enrichment score” 0.895.
`L7Y` — result for “normalised enrichment score”: 0.375.
`A11T`: “normalised enrichment score” 6.16.
`V8F` — result for “normalised enrichment score”: 6.21.
Under “normalised enrichment score”, `K4Y` is recorded as 1.14.
`V8I` — result for “normalised enrichment score”: 5.46.
`A11K` — result for “normalised enrichment score”: 5.36.
Under “normalised enrichment score”, `K2V` is recorded as 4.39.
`R5E`: “normalised enrichment score” 0.341.
For `V3T`, “normalised enrichment score” read 3.01.
Under “normalised enrichment score”, `K4E` is recorded as 0.701.
`R6A` — result for “normalised enrichment score”: 2.56.
For `R6L`, “normalised enrichment score” read 1.03.

Set 2
Target: Prothrombin, mature alpha-thrombin (F2, Homo sapiens, UniProt P00734)
Method: aptamer microarray, sandwich
Molecule type: DNA with 2'F-ANA
Medium: in vitro
Concentration: 200 nM
Notes: whole 15-mer aptamer, many near background
With: Cy3 exosite-II aptamer, 400 nM
Reading: higher = stronger binding
Strand: GGTTGGTGTGGTTGG
`2'F-ANA at 1 4 5 6 7 12 13`: “mean fluorescence intensity” 77.4 a.u.
`2'F-ANA at 1 3 5 7 8 9 11 15`: “mean fluorescence intensity” 138 a.u.
Under “mean fluorescence intensity”, `2'F-ANA at 3 4 5 6 7 10 11 12 14` is recorded as 65.5 a.u.
Under “mean fluorescence intensity”, `2'F-ANA at 1 6 8 9 11 12 14` is recorded as 192 a.u.
`2'F-ANA at 1 3 4 6 7 8 9 11 12 13` — result for “mean fluorescence intensity”: 248 a.u.
`2'F-ANA at 4 6 8 9 10 11 13 14` — result for “mean fluorescence intensity”: 62.6 a.u.
`2'F-ANA at 3 4 6 8 9 10 11` — result for “mean fluorescence intensity”: 212 a.u.
Under “mean fluorescence intensity”, `2'F-ANA at 1 2 5 6 8 10 14 15` is recorded as 50.8 a.u.

Set 3
Target: Centromere-binding protein 1, full length, N-terminal tag (CBF1, Saccharomyces cerevisiae, UniProt P17106, residues 1-351)
Sequence of UniProt P17106 (whole entry, looked up): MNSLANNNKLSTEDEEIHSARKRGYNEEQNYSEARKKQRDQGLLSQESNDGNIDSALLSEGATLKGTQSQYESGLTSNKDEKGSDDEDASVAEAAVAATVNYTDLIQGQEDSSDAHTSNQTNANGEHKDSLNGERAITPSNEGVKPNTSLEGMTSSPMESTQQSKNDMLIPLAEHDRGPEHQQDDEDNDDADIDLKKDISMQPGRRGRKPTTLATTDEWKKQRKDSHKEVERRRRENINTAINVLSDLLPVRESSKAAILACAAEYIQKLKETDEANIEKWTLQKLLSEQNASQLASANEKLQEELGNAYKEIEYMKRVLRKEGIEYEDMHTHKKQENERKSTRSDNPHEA
Method: protein-binding microarray
Molecule type: double-stranded DNA, one strand shown
Medium: in vitro
Concentration: 0.8 µM
Notes: whole 60-bp probe, no competitor
Reading: higher = stronger binding
`GAAAATGTCCCGGAAAACGTGGGTGTGCGGTGATAGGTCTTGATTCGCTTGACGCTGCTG` gave a fluorescence intensity of 563 a.u.
The fluorescence intensity of `CTACTCATCTTCTTTCCCGTGCCGTCGGGTTTATTCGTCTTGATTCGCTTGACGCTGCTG` is reported as 552 a.u.
With `GAAGTCAAGGCTTTCCACGAGACGTTCGAATATTAGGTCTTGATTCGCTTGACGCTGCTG` the fluorescence intensity was 558 a.u.
With `CTAGGATGTCTGCGATTGGTGATGCTAAGAACTTTCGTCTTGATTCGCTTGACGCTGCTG` the fluorescence intensity was 522 a.u.
The fluorescence intensity of `CTATGACGCATTTGCAGCATCAGGATTGTTTACTTCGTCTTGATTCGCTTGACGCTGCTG` is reported as 510 a.u.
With `GAACTTTTACAACATGATGTCCCTGAAACAGAGTAGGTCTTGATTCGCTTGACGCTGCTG` the fluorescence intensity was 581 a.u.
The fluorescence intensity of `GAACAGAATTAACCCCACGCGGGCAGTCTGATATAGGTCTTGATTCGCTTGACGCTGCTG` is reported as 638 a.u.
`CCTAACTACTATAATGTCGTCATATAGCTTCGTACAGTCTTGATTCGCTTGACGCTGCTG` has a fluorescence intensity of 540 a.u.

Set 4
Target: TAR DNA-binding protein 43, full length, His tag (TARDBP, Homo sapiens, UniProt Q13148, residues 1-414)
Method: RNA Bind-n-Seq
Molecule type: RNA
Medium: in vitro
Concentration: 20 nM
Notes: 6-mer, flanks averaged, single round
With: 150 mM LiCl
Relative to: input library
Reading: higher = stronger binding
Under “6-mer enrichment (R)”, `UCAUUU` is recorded as 1.08.
For `AUGCCA`, “6-mer enrichment (R)” read 0.896.
`AACUCG` — result for “6-mer enrichment (R)”: 0.809.
`ACUUAA` — result for “6-mer enrichment (R)”: 0.851.
`UUAGUA` — result for “6-mer enrichment (R)”: 1.01.
`UGACUG` — result for “6-mer enrichment (R)”: 1.
`GGAAAG`: “6-mer enrichment (R)” 1.05.
`AUAAGA` — result for “6-mer enrichment (R)”: 0.971.

Set 5
Target: Sox-I, HMG box (Salpingoeca helianthica)
Method: Spec-seq
Molecule type: double-stranded DNA, one strand shown
Medium: in vitro
Concentration: not given
Notes: whole probe, mean of replicates
Relative to: not given
Reading: lower = stronger binding
Shared flanks, not repeated: GAGTCGTCTCGTCAGCAC … CCGTAGAGCACTCAGGTC
Residues (chain): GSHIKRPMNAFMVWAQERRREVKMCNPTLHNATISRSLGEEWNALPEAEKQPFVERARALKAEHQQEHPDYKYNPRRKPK
Under “relative binding energy”, `ACGGGTT` is recorded as 0.326 ln ratio.
For `CATACTC`, “relative binding energy” read 0.567 ln ratio.
For `CATAGTT`, “relative binding energy” read 0.0591 ln ratio.
For `ATAGGTT`, “relative binding energy” read 0.0763 ln ratio.
`TATTGTT`: “relative binding energy” -2.79 ln ratio.
Under “relative binding energy”, `CATAGCG` is recorded as 0.355 ln ratio.
`CATGGTG` — result for “relative binding energy”: 0.79 ln ratio.
For `CATCGTA`, “relative binding energy” read 0.985 ln ratio.
